Measurements from different studies.
Every numbered part comes from another study and shows a few of its results, in no order. Several values in a cell are separate wells, animals, samples, runs or records.
UniProt P49137, sequence (whole entry, looked up): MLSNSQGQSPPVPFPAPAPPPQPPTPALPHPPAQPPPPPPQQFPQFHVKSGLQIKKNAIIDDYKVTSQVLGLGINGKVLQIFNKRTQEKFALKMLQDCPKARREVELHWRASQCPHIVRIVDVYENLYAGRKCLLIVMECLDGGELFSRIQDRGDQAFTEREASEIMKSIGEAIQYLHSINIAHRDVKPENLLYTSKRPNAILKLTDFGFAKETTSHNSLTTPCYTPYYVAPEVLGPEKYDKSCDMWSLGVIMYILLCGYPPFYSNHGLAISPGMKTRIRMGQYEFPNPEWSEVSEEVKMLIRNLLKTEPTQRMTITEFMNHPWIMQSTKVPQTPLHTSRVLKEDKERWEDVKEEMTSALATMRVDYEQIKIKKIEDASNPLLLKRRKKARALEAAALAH
UniProt Q8WTQ7, sequence (whole entry, looked up): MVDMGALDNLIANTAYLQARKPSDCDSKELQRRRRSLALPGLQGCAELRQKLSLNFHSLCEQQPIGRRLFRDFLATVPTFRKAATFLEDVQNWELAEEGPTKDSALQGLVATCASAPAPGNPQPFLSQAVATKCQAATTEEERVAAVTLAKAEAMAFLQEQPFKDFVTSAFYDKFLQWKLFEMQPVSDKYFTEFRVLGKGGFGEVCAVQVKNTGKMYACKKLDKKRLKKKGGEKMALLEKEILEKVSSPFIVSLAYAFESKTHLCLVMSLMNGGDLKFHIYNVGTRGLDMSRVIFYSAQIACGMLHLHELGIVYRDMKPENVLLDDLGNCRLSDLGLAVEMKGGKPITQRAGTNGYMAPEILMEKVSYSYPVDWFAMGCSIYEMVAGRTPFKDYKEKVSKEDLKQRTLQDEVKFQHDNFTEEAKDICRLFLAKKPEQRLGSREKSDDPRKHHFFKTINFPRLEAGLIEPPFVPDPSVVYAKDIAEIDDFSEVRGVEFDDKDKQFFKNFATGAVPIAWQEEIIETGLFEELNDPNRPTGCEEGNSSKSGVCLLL
UniProt Q96J92, sequence (whole entry, looked up): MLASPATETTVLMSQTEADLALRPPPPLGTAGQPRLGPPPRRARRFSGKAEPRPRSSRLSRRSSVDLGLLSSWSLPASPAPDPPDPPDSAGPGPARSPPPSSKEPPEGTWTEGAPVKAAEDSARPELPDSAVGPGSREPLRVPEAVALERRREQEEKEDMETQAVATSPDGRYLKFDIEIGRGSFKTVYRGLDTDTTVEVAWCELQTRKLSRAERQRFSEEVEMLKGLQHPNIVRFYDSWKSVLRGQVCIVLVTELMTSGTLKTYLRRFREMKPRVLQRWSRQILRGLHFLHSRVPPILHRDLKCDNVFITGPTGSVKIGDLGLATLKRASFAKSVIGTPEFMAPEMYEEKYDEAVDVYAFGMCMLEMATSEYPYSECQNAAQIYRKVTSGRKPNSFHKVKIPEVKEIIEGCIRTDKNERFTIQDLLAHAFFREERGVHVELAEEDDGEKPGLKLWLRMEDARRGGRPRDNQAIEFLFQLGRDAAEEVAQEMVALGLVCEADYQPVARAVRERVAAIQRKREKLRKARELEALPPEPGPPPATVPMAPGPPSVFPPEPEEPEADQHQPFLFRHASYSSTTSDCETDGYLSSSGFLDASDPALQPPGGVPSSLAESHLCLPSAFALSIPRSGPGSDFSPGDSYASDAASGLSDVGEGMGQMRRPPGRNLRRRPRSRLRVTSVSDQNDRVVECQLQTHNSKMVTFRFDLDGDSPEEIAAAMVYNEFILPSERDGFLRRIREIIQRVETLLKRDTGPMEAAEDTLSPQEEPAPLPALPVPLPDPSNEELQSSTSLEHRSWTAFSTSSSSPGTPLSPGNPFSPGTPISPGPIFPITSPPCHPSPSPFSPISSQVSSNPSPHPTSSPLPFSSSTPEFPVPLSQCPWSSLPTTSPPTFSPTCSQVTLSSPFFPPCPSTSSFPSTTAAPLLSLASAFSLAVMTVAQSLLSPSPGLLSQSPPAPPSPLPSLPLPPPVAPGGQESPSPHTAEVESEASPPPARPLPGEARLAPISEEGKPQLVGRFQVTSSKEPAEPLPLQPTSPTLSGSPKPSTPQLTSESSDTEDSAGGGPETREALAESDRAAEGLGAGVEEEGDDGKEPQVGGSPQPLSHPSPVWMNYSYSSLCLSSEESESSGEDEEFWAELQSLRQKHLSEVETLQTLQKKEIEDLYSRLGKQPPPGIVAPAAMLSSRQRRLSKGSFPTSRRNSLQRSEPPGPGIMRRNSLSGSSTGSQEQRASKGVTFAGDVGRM
UniProt P36507, sequence (whole entry, looked up): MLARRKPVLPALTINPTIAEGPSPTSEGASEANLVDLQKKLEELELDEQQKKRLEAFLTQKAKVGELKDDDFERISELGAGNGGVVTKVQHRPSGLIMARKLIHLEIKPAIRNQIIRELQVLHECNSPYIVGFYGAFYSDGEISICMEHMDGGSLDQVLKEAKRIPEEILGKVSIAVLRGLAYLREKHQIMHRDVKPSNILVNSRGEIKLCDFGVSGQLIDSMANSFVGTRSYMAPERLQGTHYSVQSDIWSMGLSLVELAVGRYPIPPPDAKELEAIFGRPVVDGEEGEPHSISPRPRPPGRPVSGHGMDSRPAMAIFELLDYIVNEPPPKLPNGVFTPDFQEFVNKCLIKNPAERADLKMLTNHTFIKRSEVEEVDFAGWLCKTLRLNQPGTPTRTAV
UniProt P30291, sequence (whole entry, looked up): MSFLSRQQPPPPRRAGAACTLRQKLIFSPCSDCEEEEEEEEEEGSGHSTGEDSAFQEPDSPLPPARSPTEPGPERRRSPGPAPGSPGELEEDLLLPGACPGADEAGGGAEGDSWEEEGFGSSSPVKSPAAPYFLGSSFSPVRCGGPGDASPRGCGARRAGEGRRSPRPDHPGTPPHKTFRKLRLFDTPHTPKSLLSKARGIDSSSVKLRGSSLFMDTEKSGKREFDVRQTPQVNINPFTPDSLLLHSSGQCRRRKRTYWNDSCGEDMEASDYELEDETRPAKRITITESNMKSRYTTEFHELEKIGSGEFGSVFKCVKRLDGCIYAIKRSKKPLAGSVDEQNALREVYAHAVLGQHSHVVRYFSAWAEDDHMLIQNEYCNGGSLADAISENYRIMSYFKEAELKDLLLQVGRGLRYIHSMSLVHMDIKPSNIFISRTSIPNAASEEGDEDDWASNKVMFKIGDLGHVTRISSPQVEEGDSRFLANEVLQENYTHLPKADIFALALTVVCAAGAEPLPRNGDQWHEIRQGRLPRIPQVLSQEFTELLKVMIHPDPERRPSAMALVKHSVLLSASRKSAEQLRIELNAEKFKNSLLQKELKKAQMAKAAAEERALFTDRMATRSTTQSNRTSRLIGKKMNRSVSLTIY
UniProt Q6XUX3, sequence (whole entry, looked up): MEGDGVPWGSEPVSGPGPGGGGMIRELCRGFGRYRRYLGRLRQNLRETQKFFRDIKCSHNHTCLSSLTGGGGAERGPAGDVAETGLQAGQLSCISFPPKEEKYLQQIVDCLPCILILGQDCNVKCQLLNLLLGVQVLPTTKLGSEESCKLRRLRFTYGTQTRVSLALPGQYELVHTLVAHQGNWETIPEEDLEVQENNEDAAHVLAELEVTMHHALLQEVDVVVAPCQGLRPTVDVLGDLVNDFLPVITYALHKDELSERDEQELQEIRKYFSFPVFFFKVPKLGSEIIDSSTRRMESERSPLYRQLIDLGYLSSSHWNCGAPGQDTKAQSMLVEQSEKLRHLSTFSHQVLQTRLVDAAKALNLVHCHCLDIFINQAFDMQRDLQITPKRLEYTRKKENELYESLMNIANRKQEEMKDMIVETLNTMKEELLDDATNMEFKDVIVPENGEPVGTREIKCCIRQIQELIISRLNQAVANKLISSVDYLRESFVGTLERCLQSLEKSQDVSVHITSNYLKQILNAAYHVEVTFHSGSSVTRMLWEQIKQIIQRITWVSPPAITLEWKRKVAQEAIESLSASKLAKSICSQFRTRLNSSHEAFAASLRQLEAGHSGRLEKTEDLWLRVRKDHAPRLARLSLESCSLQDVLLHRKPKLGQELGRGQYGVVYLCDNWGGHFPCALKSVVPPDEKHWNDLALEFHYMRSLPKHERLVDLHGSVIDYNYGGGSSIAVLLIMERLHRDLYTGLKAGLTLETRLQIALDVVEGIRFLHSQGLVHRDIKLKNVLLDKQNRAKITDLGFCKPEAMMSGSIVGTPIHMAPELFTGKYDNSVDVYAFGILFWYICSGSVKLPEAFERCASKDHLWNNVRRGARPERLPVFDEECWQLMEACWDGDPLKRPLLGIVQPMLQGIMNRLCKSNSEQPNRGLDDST
UniProt P49841, sequence (whole entry, looked up): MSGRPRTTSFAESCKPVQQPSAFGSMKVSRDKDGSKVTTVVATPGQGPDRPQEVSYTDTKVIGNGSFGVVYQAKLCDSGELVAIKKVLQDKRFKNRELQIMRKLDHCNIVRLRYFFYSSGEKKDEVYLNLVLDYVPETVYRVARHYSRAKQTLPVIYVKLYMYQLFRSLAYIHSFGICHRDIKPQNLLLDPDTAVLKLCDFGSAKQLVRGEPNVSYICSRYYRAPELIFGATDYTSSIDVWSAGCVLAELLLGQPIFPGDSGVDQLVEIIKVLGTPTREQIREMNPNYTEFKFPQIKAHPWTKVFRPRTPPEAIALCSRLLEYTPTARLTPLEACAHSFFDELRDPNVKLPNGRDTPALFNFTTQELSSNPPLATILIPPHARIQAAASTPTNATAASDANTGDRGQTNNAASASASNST
UniProt P27361, sequence (whole entry, looked up): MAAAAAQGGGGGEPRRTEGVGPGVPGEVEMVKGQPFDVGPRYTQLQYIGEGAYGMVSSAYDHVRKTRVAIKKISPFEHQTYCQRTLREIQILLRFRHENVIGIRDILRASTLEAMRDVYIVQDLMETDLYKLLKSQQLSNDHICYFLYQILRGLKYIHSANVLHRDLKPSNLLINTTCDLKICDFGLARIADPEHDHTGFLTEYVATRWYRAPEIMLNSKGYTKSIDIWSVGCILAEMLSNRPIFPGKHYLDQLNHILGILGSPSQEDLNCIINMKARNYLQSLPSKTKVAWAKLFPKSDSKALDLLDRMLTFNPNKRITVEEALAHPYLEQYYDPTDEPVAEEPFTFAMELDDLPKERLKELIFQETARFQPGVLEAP

Series 1 — cell line: HaCaT; tested at: 100 µM; time: 18 h
| SMILES | viability |
| --- | --- |
| Cc1ccccc1C(=O)Nc1ccc(C(=O)N2CCCC(O)c3cc(Cl)ccc32)c(C)c1 (stereo not shown) | 64.6% |
| CCCC(C(=O)OCCN(CC)CC)(c1ccccc1)c1ccccc1 | 17.6% |
| CN1CCC(=C2c3ccccc3CCc3cccnc32)CC1 | 114% |
| [H]/N=C(/N)NS(=O)(=O)c1ccc(N)cc1 | 108% |
| COc1ccc(-c2cc(=S)ss2)cc1 | 86.8% |

Series 2 — read-out: cell-free assay; method: competition with immobilised ligand; tested at: 1 µM
SMILES: C[C@H](c1ccc(F)cc1)N(Cc1cccc(C(=O)O)c1)C(=O)c1cnc2ccccc2c1
| target | remaining binding [%] |
| --- | --- |
| Phosphatidylinositol 5-phosphate 4-kinase type-2 beta (PIP4K2B, Homo sapiens, UniProt P78356) | 96 |
| Serine/threonine-protein kinase WNK4 (WNK4, Homo sapiens, UniProt Q96J92) | 91 |
| MAP kinase-activated protein kinase 2 (MAPKAPK2, Homo sapiens, UniProt P49137) | 85 |
| Dual serine/threonine and tyrosine protein kinase (DSTYK, Homo sapiens, UniProt Q6XUX3) | 100 |

Series 3 — read-out: enzyme activity; mode: inhibitor; tested at: 0.5 µM; relative to: control
SMILES: CC#CC(=O)Nc1cc2c(Nc3ccc(F)c(Cl)c3)ncnc2cn1
| target | remaining activity |
| --- | --- |
| Mitogen-activated protein kinase 3 (MAPK3, Homo sapiens, UniProt P27361) | 100% |
| Glycogen synthase kinase-3 beta (GSK3B, Homo sapiens, UniProt P49841) | 93% |
| Rhodopsin kinase GRK7 (GRK7, Homo sapiens, UniProt Q8WTQ7) | 106% |
| Wee1-like protein kinase (WEE1, Homo sapiens, UniProt P30291) | 93.2% |
| Tyrosine-protein kinase JAK3 (JAK3, Homo sapiens, UniProt P52333) | -0.181% |
| Dual specificity mitogen-activated protein kinase kinase 2 (MAP2K2, Homo sapiens, UniProt P36507) | 106% |
| Ephrin type-A receptor 3 (EPHA3, Homo sapiens, UniProt P29320) | 99.8% |
| Ribosomal protein S6 kinase alpha-2 (RPS6KA2, Homo sapiens, UniProt Q15349) | 105% |
| Angiopoietin-1 receptor (TEK, Homo sapiens, UniProt Q02763) | 99.7% |
| Tyrosine-protein kinase FRK (FRK, Homo sapiens, UniProt P42685) | 102% |
| Tyrosine-protein kinase Lck (LCK, Homo sapiens, UniProt P06239) | 92.2% |
| MAP kinase-activated protein kinase 2 (MAPKAPK2, Homo sapiens, UniProt P49137) | 104% |
| Serine/threonine-protein kinase TAO2 (TAOK2, Homo sapiens, UniProt Q9UL54) | 106% |
| Mitogen-activated protein kinase kinase kinase 5 (MAP3K5, Homo sapiens, UniProt Q99683) | 98.9% |

Series 4 — method: Incucyte 3D growth; tested at: 30 µM; reading: higher = more growth
Structure (SMILES): CC(C)(C(=O)O)[C@H](NC(=O)Cc1cccc(I)c1)c1ccc2oc(=O)[nH]c2c1
| cell line | setting | spheroid area |
| --- | --- | --- |
| PC-9 | 174 h | 1.59e+09 a.u. and 1.51e+09 a.u. and 1.52e+09 a.u. and 1.49e+09 a.u. and 1.6e+09 a.u. |
| MEL-JUSO | 30.52 h | 1.04e+07 a.u. and 9.65e+06 a.u. and 1.27e+07 a.u. and 1.15e+07 a.u. and 7.7e+06 a.u. and 1.05e+07 a.u. |
| KP-4 | 216 h | 6.04e+07 a.u. and 3.89e+07 a.u. and 3.81e+07 a.u. and 3.95e+07 a.u. and 3.88e+07 a.u. and 1.89e+07 a.u. |
| NCI-H1437 | 132 h | 2.82e+07 a.u. and 3.72e+07 a.u. and 3.37e+07 a.u. and 3.1e+07 a.u. and 2.83e+07 a.u. and 2.9e+07 a.u. |

Series 5 — host: mouse; matrix: microsomes or S9; tested at: 2 µM; time: 0.5 h
| Structure (SMILES) | remaining compound |
| --- | --- |
| Cc1oc(-c2cccc(F)c2F)nc1CN(C)CC1CCCNC1 (stereo not shown) | 0.425% |
| O=C1C[C@H](n2nc(-c3ccc(F)cc3)oc2=S)[C@H]2CO[C@@H]1O2 | 7.17% |
| CCOC(=O)c1c(N)sc2c1CCC(NC(=O)OC(C)(C)C)C2 (stereo not shown) | 84% |
| Fc1ccc(-c2cc(-c3nc4c5c(ncn4n3)CCC5)[nH]n2)cc1 | 22.2% |

Excerpt of the above (series 1):
| SMILES | viability |
| --- | --- |
| Cc1ccccc1C(=O)Nc1ccc(C(=O)N2CCCC(O)c3cc(Cl)ccc32)c(C)c1 (stereo not shown) | 64.6% |
| CCCC(C(=O)OCCN(CC)CC)(c1ccccc1)c1ccccc1 | 17.6% |
| CN1CCC(=C2c3ccccc3CCc3cccnc32)CC1 | 114% |
